Experimental data collected from several papers.
Each numbered part is a random draw from the data of one study; scales do not carry over between parts. Substitutions count along the parent as printed.

Sample 1
Target: RNA binding protein fox-1 homolog 2, RRM domain, GST-SBP tag (RBFOX2, Homo sapiens, UniProt O43251-10, residues 100-194)
Technique: RNA Bind-n-Seq
Molecule type: RNA
Matrix: in vitro
Concentration: 365 nM
Notes: natural RNA segment, single round, ends assumed
Reference: no-protein control
Direction: higher = stronger binding
Constant ends, left off below: GGGAGUUCUACAGUCCGACGAUC … UGGAAUUCUCGGGUGCCAA
Residues (chain): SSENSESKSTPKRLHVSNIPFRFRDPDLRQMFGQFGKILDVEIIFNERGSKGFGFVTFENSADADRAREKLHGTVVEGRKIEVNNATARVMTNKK
Strand	RBNS enrichment (R)
UAAAACUGCAGUAGAAUGAAAUGAGUCAGGGAGCUUCAGUUAGAAAAUAAAGUUGAGGCAGUUUUUGUGAAGAUAAUAUGGUUAGGGCUGGAGUGCACUAGUCUUUUUGC	2.14
UUCCAUUGACAUUUAGAGUGAAAUAUUUUAUGCCAAAAAAAAAAUCUCUUUUUUAAAAAAGGGGGUUUGACUAUUGUUGGCAUUCUUGUGGUUCCUUUAAAUGCCCUUAC	0.495
UGUGUGUGUGUACGUGAGGCAGAAGAAUAUGACAGAUGUCAGCUUCUCCCUGUGUCAGAUGAUAUGUCCUUGAAGCUGGCAGGGGAUUCCCAGUCCAGGGAAUAUCCCUA	2.12
CAUUUUUUUAAGUGUGCAGGGCAGCCUGGACACAGCUUAGCGUUCUACGUGUAUAGUUCUCCAUGCUCACUAACUCUCCUUCUCUGGGAAGCAGAUGUACAUACUACAUA	0.368
UUGGGCGCAGGGUGGGUGUUGGGGAGAUCCCUUCCAGGUUGGGGCAGGACUGGGUGGGAGGACCCCUAGGCUGCCCUCACCUUCUGCCUUCUCCAGCCGCCCUUCACUGC	0.305
CGAUCGCAUCUUGUGUCGCUGAGGCGGCGCACUGAGGGACCAGAUGGACUCCAGCCCUUCAGGAGGCAAGAGGAAAAAAGUGCUCUCGGUUCCCCAGGGGAUCUCUGGGA	0.542
GACUAAGACUGGUCUUCUCAGAUGCCCUGCUUAAAUCAGGGGCACUUCAGGCUCCACAGGCGUCAUGUUGGACUGAGACCUAACUCACUGGACUCAGAGGAGGAAUCGUG	0.378
CAGGCCAGUGGCAGGUGGACUGGAAGAGGCCUCUCCACUGAGCCUGUGUUCUGUGCUUCAGGCUCUGGAUCAUCACCCCCGCUGCUCUCCCAUUCCGGUACCUAAGUAAC	0.28
UUGAAGACAUUACAGAAAUGAAGGUGUGUUCAUGGGUCAAUAACAGCAAAGUAAUUAUGGACCAAUAACUAUGUUCACCCUGAAACUUUUAUGCCACCAAUCACCAAAAA	0.343
UAGUUCCUGUCACCUGCCCUCUGGUGUGUCCCUUGGCAAAUCUCUAUAGGAGGCCAAGUGUUAGCUAUCCAGGGCCCCUCCACUGCUGCAGCCAGUGUGCUCUUGAAUAA	0.329
UAAAAUUAGACUUCCUUCCCUCACUAUAUAUCUUUAUGCAGUCAGAAUAUUUCCAACAGUGUUUUUUGCAAAUUAGAGCAGGACAAACUUUUAUGUUUACAGGGCACGUC	0.675

Sample 2
Target: RING finger protein unkempt homolog, zinc fingers 1-6, GST-SBP tag (UNK, Homo sapiens, UniProt Q9C0B0, residues 30-357)
Chain of UniProt Q9C0B0 (30-357, looked up): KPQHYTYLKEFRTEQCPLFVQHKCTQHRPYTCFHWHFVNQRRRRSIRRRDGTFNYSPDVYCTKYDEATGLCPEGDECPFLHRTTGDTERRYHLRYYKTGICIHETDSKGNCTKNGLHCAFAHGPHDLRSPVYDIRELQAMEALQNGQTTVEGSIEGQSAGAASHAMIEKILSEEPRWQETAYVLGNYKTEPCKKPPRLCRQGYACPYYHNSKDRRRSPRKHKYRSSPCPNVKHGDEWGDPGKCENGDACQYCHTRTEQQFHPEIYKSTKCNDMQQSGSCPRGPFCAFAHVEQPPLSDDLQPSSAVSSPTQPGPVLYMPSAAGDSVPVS
Technique: RNA Bind-n-Seq
Molecule type: RNA
Matrix: in vitro
Concentration: not given
Notes: RNA with constant flanks, human-mouse chimeric sites, ends assumed
Reference: input RNA pool
Direction: higher = stronger binding
Constant ends, left off below: GGGAGUUCUACAGUCCGACGAUC … CAACAGAGGAUUGAGCAUCA
Strand	bound/input enrichment [ratio]
CCCCAAUACCAUUUGCAGGUCUGGAACUGCACUCUCUUUUUUAAAAAACAUGUAUACAUUUUAGGGCUGUAGAUUUAUUUUCCUGGUUUCUUUUCCAAUUGCUGACUUUGAGCACAAGAA	2.21
AGAAUCUUGGGACUGUUUUACUUAAUUGGUCAUUGAUAGCUUAACAAACAUGGAGAUAAGAUUAGAAAUCUUGACAUCAACAGGUAUCAAGCAGAAAAAACCCUGGCCACGUGUCUCCUG	0.167
AACUUCGUACAUAGAUUUCCCUUUGUAGCUGUUUCAAUUGGCUUUGCUGUGAAUAAAGAGAUGGAGUUUGGAAUUGUGUACAGCUGUGUGGAAGAUAAGAUGUACACCGGCAGGAAAGGG	1.15
AUAAAGGCUAUGUUGAGUGGUCCAGGUCAGUUUGCUGAGAAUGAAACCAACGAGGUCAAUUUUAGAGAGAUCCCCUCACAUGUGCUAUCGAAAGUAUGCAUGUAUUUUACCUACAAGGUC	0.184
CAGUCCCGCGACAGCGUUGCAGGACGAUGUGAACAAAAACUCAAAGCGGACCCUCUAUUGUAGUUCUUGAUUCUCGAAAUGUGCUAUUGUUUUUAAACUUUUUUUUUUUUUUUUUAAAGA	0.723
AAUGUUCUUAAUAUUUUUGAAUAAAUGAAGCUAAAAUGUCUGCUUUUGGUACAACACGCAUUAGCGAAAGGUUAAGUUUUGUUUUCCACUGAAGUACUAUUUAACAUCUCAGAAAAAAAC	0.423
UAAAUUAGCCAGCACCACCGUUCUCACUCCCUGGGCUGCGGAAAGCCAGAAGAUUUUAUCUAGCUUAUACAAGGCUGCUGGUGUUCCCUCUUUUUUUCCACGAGGGUGUUUUUGGCUGCA	0.69

Sample 3
Target: CCND3, cyclin fold, Cln2 fusion (human)
Technique: yeast growth competition, sequencing
Matrix: yeast
Notes: weak parent motif
Reference: not given
Direction: higher = stronger binding
Starting sequence: SLBP docking peptide (human); ARYKRKLLINDFG; partner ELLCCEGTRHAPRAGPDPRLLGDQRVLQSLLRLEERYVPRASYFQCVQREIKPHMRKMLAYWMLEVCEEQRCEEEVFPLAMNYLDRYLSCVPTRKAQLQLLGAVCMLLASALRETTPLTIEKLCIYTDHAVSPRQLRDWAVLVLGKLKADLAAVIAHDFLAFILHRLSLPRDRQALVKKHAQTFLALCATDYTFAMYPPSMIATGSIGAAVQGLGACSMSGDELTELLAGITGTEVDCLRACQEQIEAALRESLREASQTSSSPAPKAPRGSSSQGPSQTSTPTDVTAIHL
Variant	normalised enrichment score
G13D	0.084
A1Q	0.0368
K6C	0.277
K6H	-0.0449
L7Q	0.13
N10I	0.147
I9V	0.124
L7R	0.133

Sample 4
Substance: PhoQ, residues 284 288 289 292 302 303 SLANIV
Technique: Sort-seq
Refers to: YFP reporter
Matrix: E. coli
Notes: PhoQ-PhoP variant library
Added: 10 µM Mg2+
Reference: high Mg2+ state
Direction: higher = stronger signaling
target	fold induction
PhoP, residues 12 14 15 18 19 AYFRS (Escherichia coli, UniProt P23836)	1.47
PhoP, residues 12 14 15 18 19 SFCSL (Escherichia coli, UniProt P23836)	18.3
PhoP, residues 12 14 15 18 19 HHYTI (Escherichia coli, UniProt P23836)	20.1

For quick reference, copied from above (sample 2):
Strand	bound/input enrichment [ratio]
CCCCAAUACCAUUUGCAGGUCUGGAACUGCACUCUCUUUUUUAAAAAACAUGUAUACAUUUUAGGGCUGUAGAUUUAUUUUCCUGGUUUCUUUUCCAAUUGCUGACUUUGAGCACAAGAA	2.21
CAGUCCCGCGACAGCGUUGCAGGACGAUGUGAACAAAAACUCAAAGCGGACCCUCUAUUGUAGUUCUUGAUUCUCGAAAUGUGCUAUUGUUUUUAAACUUUUUUUUUUUUUUUUUAAAGA	0.723
UAAAUUAGCCAGCACCACCGUUCUCACUCCCUGGGCUGCGGAAAGCCAGAAGAUUUUAUCUAGCUUAUACAAGGCUGCUGGUGUUCCCUCUUUUUUUCCACGAGGGUGUUUUUGGCUGCA	0.69
